Measurements gathered from unrelated publications.
Compare with care: the assays were run in different laboratories. ± marks the error that the study gave.

Under liver weight, `CCCc1nc2cc(C(=O)N3CCC4(CC3)CC(=O)c3cc5c(cc3O4)OC(C)(C)CC5)cc(C)c2[nH]1` is recorded as “decreased” (measured: liver and liver/body weight ratio; C57BL/6J male mouse, HFD-induced NASH; intragastric, dose not given, daily weeks 10 to 22; reference: vehicle).
For `CCCCCCCCCCCCCCc1sc(NC(=O)CN2CCC(O)CC2)nc1-c1ccccc1`, “hydroxyl radical scavenging” read 78.4% (Fe3+/ascorbic acid system; concentration not given, 30 min, 37 °C, together with: DMSO 33 mM).
For `CC1Cc2ccccc2N1C(=O)CN1CCN(Cc2ccccc2)CC1` (stereo not drawn), locomotor activity read “no effect” (open field; D4 dopamine receptor knockout mice; ip, 1 mg/kg).
`CSc1nn(-c2ccccc2)c(NC(=O)/C(C#N)=C(/Nc2ccc(C)cc2)Nc2c(C)n(C)n(-c3ccccc3)c2=O)c1C#N` gave a mRNA level of 1.05 ± 0.19 (real-time PCR, measured: LOX; mouse, formalin test, paw tissue; dose not given, unit not given; reference: control).
For `COc1ccc2c(c1)c(CC(=O)OCC(=O)c1ccccc1)c(C)n2C(=O)c1ccc(Cl)cc1`, “latency of nociceptive response” read 13.9 ± 1.32 s (hot plate test; BALB/c mice; 75 mg/kg, 30 min).
`CC(C)[C@H](N)C(=O)N1CCC[C@H]1C(=O)NCC(=O)NCC(=O)O`: “enthalpy of activation” 19.6 ± 0.239 kcal/mol (diketopiperazine formation, transition state theory; 1-propanol; concentration not given, 70, 80, 90 °C, 0.5% acetic acid).
For `CC[C@H]1[C@@H](O)[C@@H]2[C@H](CC[C@]3(C)[C@@H]([C@H](C)CCOS(=O)(=O)[O-])CC[C@@H]23)[C@@]2(C)CC[C@@H](O)C[C@@H]12.[Na+]`, “whole-body lean mass” read 33.6 ± 0.8% (EchoMRI; ob/ob NASH mouse model; oral, 10 mg/kg once daily, 8 weeks; reference: body weight).
For `O=C1NC(=O)C(C2CCOc3cc(Oc4ccc(C(F)(F)F)cc4Cl)ccc32)S1` (stereo not drawn), the GLP-1 release was 2.8 ± 0.42 fold change (measured: total GLP-1; colonic crypt cultures, wild type, mouse, ex vivo; 1 µM, 2 h; reference: vehicle).
The oedema reduction of `FC(F)(F)Oc1ccc(/N=c2\oc3ccccc3cc2-c2ccccc2)cc1` is reported as 38.7 ± 3.4% (rat, formalin paw oedema; intraperitoneal, 20 mg/kg, 1 h).
For `COc1ccc(C2CC(c3ccc(C)cc3)=Nc3ccccc3S2)cc1OC` (stereo not drawn), the blood glucose was 109 ± 4.39 mg/dL (rat, normal, overnight fasted; oral, 10 mg/kg, 120 min, oral glucose tolerance test, together with: glucose 3 g/kg oral).
`COc1ccc2c(c1)c(CC(=O)OCC(=O)OC(C)(C)C)c(C)n2C(=O)c1ccc(Cl)cc1` — result for “latency of nociceptive response”: 10.8 ± 1.08 s (hot plate test; BALB/c mice; 100 mg/kg, 0 min).
`CC#N.O=S(=O)([O-])C(F)(F)F.O=S(=O)([O-])C(F)(F)F.Oc1ccc(O)c(CN(CCN(Cc2ccccn2)Cc2ccccn2)Cc2ccccn2)c1.[Mn+2]` gave a log kcat of 7.99 (superoxide dismutation, stopped-flow).
`Cn1c(=O)c(=O)n(C)c2cc(S(=O)(=O)Nc3ccc(S(=O)(=O)Nc4ncccn4)cc3)ccc21` has a blood glucose of 117 ± 7.2 mg/dL (IPGTT; HFD/STZ diabetic male albino mice; 10 mg/kg, 2 h).
`C=C(c1ncc(C(=O)O)cn1)c1cc2c(cc1C)C(C)(C)CCC2(C)C` — result for “log2 fold change”: 0.048 (RNA sequencing, measured: Sycp2; rat, brain; dose not given, 24 h; reference: vehicle).
For `N[C@@H](CCC(=O)O)C(=O)N1CCC[C@H]1C(=O)NCC(=O)NCC(=O)O`, “enthalpy of activation” read 16.5 ± 3.59 kcal/mol (diketopiperazine formation, transition state theory; 1-propanol; concentration not given, 70, 80, 90 °C, 0.5% acetic acid).
`O=C1CCN(Cc2ccccc2)CC1C(C[N+](=O)[O-])c1ccccc1` (stereo not drawn) — result for “tail flick response”: 28.3% (tail immersion test; BALB/c mice; ip, 50 mg/kg, 0.5 h).
`CCCC[C@H](NC(=O)[C@H](C)NC(=O)[C@H](CO)NC(=O)[C@H](CC(C)C)NC(=O)[C@H](CCCCN)NC(=O)[C@]1(C)CCCC=CCCCCCC[C@@](C)(NC(=O)[C@H](CCC(=O)O)NC(=O)[C@H](CC(C)C)NC(=O)[C@H](CO)NC(=O)[C@H](CCC(N)=O)NC(=O)[C@@H](NC(=O)[C@H](CCCC)NC(=O)[C@H](CCC(=O)O)NC(=O)[C@H](CCCNC(=N)N)NC(=O)[C@H](CCC(N)=O)NC(=O)[C@H](CC(C)C)NC(=O)[C@H](CC(C)C)NC(=O)[C@H](CS)NC(=O)[C@H](CCC(N)=O)NC(=O)[C@H](C)NC(=O)[C@H](CCCNC(=N)N)NC(C)=O)C(C)C)C(=O)N[C@@H](CCC(N)=O)C(=O)N[C@@H](CC(C)C)C(=O)N[C@@H](C(C)C)C(=O)N[C@@H](CC(C)C)C(=O)N[C@@H](CCC(=O)O)C(=O)N[C@@H](CCCCN)C(=O)N1)C(=O)N[C@@H](CCC(N)=O)C(=O)N[C@@H](C)C(=O)N[C@@H](Cc1c[nH]cn1)C(N)=O` — result for “Tcon cell proliferation”: 90.7% (Treg-mediated suppression, flow cytometry; Treg and Tcon cells, mouse; dose not given, 3 d, Treg:Tcon 1:1).
`N[C@@H](Cc1c[nH]cn1)C(=O)N1CCC[C@H]1C(=O)NCC(=O)NCC(=O)O` — result for “enthalpy of activation”: 19.8 ± 0.717 kcal/mol (diketopiperazine formation, transition state theory; 1-propanol; concentration not given, 70, 80, 90 °C, 0.5% acetic acid).
`COc1cc(CN2CCN(c3ccccc3[N+](=O)[O-])CC2)c2cc3[n+](cc2c1O)CCc1cc2c(cc1-3)OCO2` gave an FRAP absorbance of 0.004 ± 0.48 a.u. (ferric reducing power, FRAP; 10 µg/mL, 30 min; higher is greater reducing power).
For `Oc1ccc2nc1CNCCNCCNC2`, “log beta MHL” read 23.8 (pH-potentiometric titration; 298 K, I 0.15 M NaCl, together with: Zn2+).
With `Cc1ccc(C(=O)Nc2ccc(CP(=O)(O)O)cc2CP(=O)(O)O)cc1NC(=O)c1cccc(NC(=O)Nc2cccc(C(=O)Nc3cc(C(=O)Nc4ccc(CP(=O)(O)O)cc4CP(=O)(O)O)ccc3C)c2)c1` the PT was 16.7 ± 1.8 s (human plasma; 470 µM).
`CC(C)C[C@H](NC(=O)[C@H](CCCNC(=N)N)NC(=O)CNC(=O)[C@@H](N)CC(C)C)C(=O)N[C@@H](CO)C(=O)N[C@@H](CCC(N)=O)C(=O)N[C@@H](CCC(=O)O)C(=O)N[C@@H](CC(C)C)C(=O)N[C@@H](Cc1c[nH]cn1)C(=O)N[C@@H](CCCNC(=N)N)C(=O)N[C@@H](CC(C)C)C(=O)N[C@@H](CCC(N)=O)C(=O)N[C@H](C(=O)N[C@@H](Cc1ccc(O)cc1)C(=O)N1CCC[C@H]1C(=O)N[C@@H](CCCNC(=N)N)C(=O)N[C@H](C(=O)N[C@@H](CC(N)=O)C(=O)N[C@H](C(=O)NCC(=O)N[C@@H](CO)C(=O)N[C@@H](CC(N)=O)C(=O)N[C@H](C(=O)N[C@@H](Cc1ccc(O)cc1)C(N)=O)[C@@H](C)O)[C@@H](C)O)[C@@H](C)O)[C@@H](C)O` — result for “synapsin level increase”: 40% (measured: synapsin 1; TgCRND8 mice, brain; icv, dose not given, 5 months; reference: vehicle).
`Cc1[nH]nc2c1N=C(c1ccccc1Cl)c1cnc(N3CCOCC3)cc1N2` — result for angiogenesis: “inhibited” (measured: haemoglobin; nude mice, Matrigel plug; oral, dose not given, 7 d, once daily).
The adiponectin level of `CC[C@H](C)[C@H](NC(=O)[C@H](CC(N)=O)NC(=O)[C@H](CC(N)=O)NC(=O)[C@H](CCCNC(=N)N)NC(=O)[C@H](CC(N)=O)NC(=O)[C@H](CCCNC(=N)N)NC(=O)[C@H](CCCCN)NC(=O)[C@@H](NC(=O)[C@H](CC(N)=O)NC(=O)[C@H](CCSC)NC(=O)[C@H](CC(C)C)NC(=O)[C@H](Cc1c[nH]c2ccccc12)NC(=O)[C@H](CCC(N)=O)NC(=O)[C@@H](NC(=O)[C@H](Cc1ccccc1)NC(=O)[C@H](CC(=O)O)NC(=O)[C@H](CCC(N)=O)NC(=O)[C@H](C)NC(=O)[C@H](CCCNC(=N)N)NC(=O)[C@H](CCCNC(=N)N)NC(=O)[C@H](CO)NC(=O)[C@H](CC(=O)O)NC(=O)[C@H](CC(C)C)NC(=O)[C@H](Cc1ccc(O)cc1)NC(=O)[C@H](CCCCN)NC(=O)[C@H](CO)NC(=O)[C@H](Cc1ccc(O)cc1)NC(=O)[C@H](CC(=O)O)NC(=O)[C@H](CO)NC(=O)[C@@H](NC(=O)[C@H](Cc1ccccc1)NC(=O)[C@@H](NC(=O)CNC(=O)[C@H](CCC(=O)O)NC(=O)[C@@H](CO)NC(=O)[C@@H](N)Cc1c[nH]cn1)[C@@H](C)O)[C@@H](C)O)C(C)C)[C@@H](C)O)C(=O)N[C@@H](C)C(=O)N[C@@H](CSCC(=O)NCCOCCOCCOCCOCCC(=O)O[C@H]1CC[C@@]2(C)C(=CC[C@H]3[C@@H]4CC[C@H]([C@H](C)CCCC(C)C)[C@@]4(C)CC[C@@H]32)C1)C(N)=O` is reported as 20 ± 1 µg/mL (diet-induced obese mice, plasma; subcutaneous, 1.9 µmol/kg, 14 days, chronic dosing).
For `CC[C@@]1(c2cccc(C(F)(F)F)c2)C2=C(Nc3n[nH]cc31)[C@H](F)C(C)(C)CC2=O` (single isomer, unassigned), “tau phosphorylation at Thr231” read “decreased” (measured: phospho-tau Thr231; rat, postnatal day 10, cortex; intraperitoneal, dose not given, 3 h after dose; reference: vehicle).
`C=CCC1C(=O)C=C(OC)C2(OC)C(C)C(c3ccc4c(c3)OCO4)OC12` (single isomer, unassigned; (-)) — result for mRNA level: “decreased” (measured: CYP7A1, CYP8B1; mouse, bile duct ligation, liver; dose not given).
With `CCCCCCCCCCCCCCCC(=O)NCCCC[C@H](N)C(=O)N[C@@H](CC(=O)O)C(=O)N[C@H](C(=O)N[C@@H](Cc1c[nH]cn1)C(=O)N[C@@H](Cc1ccccc1)C(=O)N[C@@H](CCCNC(=N)N)C(=O)N[C@H](C(=O)N[C@@H](Cc1ccccc1)C(=O)N[C@@H](CCCNC(=N)N)C(=O)N[C@@H](CO)C(=O)N[C@@H](Cc1c[nH]cn1)C(=O)N[C@@H](CO)C(=O)N[C@@H](CC(=O)O)C(=O)N[C@@H](Cc1ccc(O)cc1)C(=O)N[C@@H](CCCNC(=N)N)C(=O)N[C@@H](CCCNC(=N)N)C(=O)N[C@H](C(=O)O)[C@@H](C)CC)[C@@H](C)O)[C@@H](C)O` the liver weight was 1.28 ± 0.08 g (C57BL/6J mouse, MCD diet; intraperitoneal, 1.2 nmol/g, 3 weeks, 3 times weekly).
For `COc1cc(/C=C/C(=O)OCCCC[P+](c2ccccc2)(c2ccccc2)c2ccccc2)ccc1O`, “cytochrome c release” read 60 pmol/mg protein (rat liver mitochondria; 10 µM, 15 min).
Under “hydroxyl radical scavenging”, `O=C(CN1CCC(O)CC1)Nc1nccs1` is recorded as 97.2% (Fe3+/ascorbic acid system; concentration not given, 30 min, 37 °C, together with: DMSO 33 mM).
For `CCCN1C(=O)CCc2cc(NS(=O)(=O)Cc3ccccc3)ccc21`, water loss read “no effect” (Arabidopsis thaliana Col-0, one month old, detached rosette leaves; 50 µM spray, rapid dehydration; reference: DMSO).
`CCOC(=O)Cc1csc(NC(=O)CCN2CCC(O)CC2)n1`: “hydroxyl radical scavenging” 87% (Fe3+/ascorbic acid system; concentration not given, 30 min, 37 °C, together with: DMSO 33 mM).
`COc1c2c(cc3oc(COC4OC(CO)C(O)C(O)C4O)cc(=O)c13)OC(C(C)(C)O)C2` (stereo not drawn) — result for “hot plate latency”: 12.2 ± 2.53 s (analgesia; mouse; oral, 2 mg/kg, 1.5 h).
Under “enthalpy of activation”, `N=C(N)NCCC[C@H](N)C(=O)N1CCC[C@H]1C(=O)NCC(=O)NCC(=O)O` is recorded as 22.9 ± 1.91 kcal/mol (diketopiperazine formation, transition state theory; 1-propanol; concentration not given, 70, 80, 90 °C, 0.5% acetic acid).
Under “depolymerization rate constant”, `C[C@H](NC(=O)COC(=O)[C@H](C)NC(=O)CO)C(=O)O` is recorded as 0.02 h⁻¹ (water; pH 2, 65 °C).
The blood glucose of `NC(=S)N/N=C1\c2ccccc2-c2nc3cc(F)ccc3nc21` is reported as 388 ± 82.7 mg/dL (mice with STZ-induced diabetes; oral, 25 mg/kg, 288 h, day 12).
`Cc1nc(C)c(C=[N+]([O-])C(C)(C)C)nc1C` — result for “protein level increase”: 123% (Western blot, measured: Nrf2; mouse, MPTP model, substantia nigra cytosol; 90 mg/kg).

Excerpt of the above:
`N[C@@H](Cc1c[nH]cn1)C(=O)N1CCC[C@H]1C(=O)NCC(=O)NCC(=O)O` — result for “enthalpy of activation”: 19.8 ± 0.717 kcal/mol (diketopiperazine formation, transition state theory; 1-propanol; concentration not given, 70, 80, 90 °C, 0.5% acetic acid).
`COc1cc(CN2CCN(c3ccccc3[N+](=O)[O-])CC2)c2cc3[n+](cc2c1O)CCc1cc2c(cc1-3)OCO2` gave an FRAP absorbance of 0.004 ± 0.48 a.u. (ferric reducing power, FRAP; 10 µg/mL, 30 min; higher is greater reducing power).
For `Oc1ccc2nc1CNCCNCCNC2`, “log beta MHL” read 23.8 (pH-potentiometric titration; 298 K, I 0.15 M NaCl, together with: Zn2+).
With `Cc1ccc(C(=O)Nc2ccc(CP(=O)(O)O)cc2CP(=O)(O)O)cc1NC(=O)c1cccc(NC(=O)Nc2cccc(C(=O)Nc3cc(C(=O)Nc4ccc(CP(=O)(O)O)cc4CP(=O)(O)O)ccc3C)c2)c1` the PT was 16.7 ± 1.8 s (human plasma; 470 µM).
